Assay results collected from several papers.
Compare with care: the assays were run in different laboratories. ± gives the spread as reported.

O=C1CC[C@H](N2Cc3cc(N4CCN(CC5CCN(c6ccc([C@@H]7c8ccc(O)cc8CC[C@@H]7c7ccccc7)cc6)CC5)CC4)ccc3C2=O)C(=O)N1 — recovery (rapid equilibrium dialysis; human liver microsomes; 2.5 µM, 6 h): 106%
CC(=O)N1CCN(c2ccc(OCC3COC(Cn4ccnc4)(c4ccc(Cl)cc4Cl)O3)cc2)CC1 (centres unmarked) — recovery (equilibrium dialysis; human plasma; 1 µM, 6 h): 107%
CC(=O)CC(c1ccccc1)c1c(O)c2ccccc2oc1=O (centres unmarked) — recovery (Caco-2 monolayer; 10 µM, 2 h): 91.2%
CC(C)(C)c1ccc(O)c(CN(Cc2cc(C(C)(C)C)ccc2O)C2CCC(NC(N)=O)CC2)c1 (centres unmarked) — recovery (mouse plasma; 2000 ng/mL, 3 months, -20 °C, long-term storage): 98.23 ± 0.87%
C=CC(=O)Nc1cc(Nc2nccc(-c3cn(C)c4ccccc34)n2)c(OC)cc1N(C)CCN(C)C — recovery (storage stability; human plasma; 2 h, -80 °C, LLOQ level): 104%
CCCCS(=O)(=O)N[C@@H](Cc1ccc(OCCCCC2CCNCC2)cc1)C(=O)O — recovery (rapid equilibrium dialysis; human platelet-free plasma; 2 µM, 24 h): 116%
CC(=O)N[C@H]1[C@H]([C@H](O)[C@H](O)CO)OC(C(=O)O)=C[C@@H]1N=C(N)N — recovery (HPLC; HBSS; 0.1 µg/mL, time not given, three freeze-thaw cycles): 102%
C=CC(=O)Nc1cc(Nc2nccc(-c3cn(C)c4ccccc34)n2)c(OCC(F)(F)F)nc1N(C)CCN(C)C — recovery (rapid equilibrium dialysis; human plasma; 0.1 µg/mL, time not given): 77.7%

For quick reference, copied from above:
C=CC(=O)Nc1cc(Nc2nccc(-c3cn(C)c4ccccc34)n2)c(OC)cc1N(C)CCN(C)C — recovery (storage stability; human plasma; 2 h, -80 °C, LLOQ level): 104%
